# Assay results from different studies.
# Protocols differ between the studies behind these lines. ± gives the spread as reported.
SMILES,tested on,assay,test system,conditions,scale,quantity,value
O=C1NC(=O)c2c1c1cc(F)c[n+]3c1c1c2c2cc(O)ccc2[n]1[Ru-4]312([N]=C=S)[S+]3CC[S+]1CC[S+]2CC3 (stereo not shown),"Map2k4 (Mus musculus, UniProt P47809)",enzyme activity,,"100 nM, mouse enzyme, together with: 10 µM ATP",baseline: untreated,remaining activity,55%
CS(C)(=O)=Nc1ccc(-c2ccc(-c3nc4cc(O[C@@H]5CO[C@H]6[C@@H]5OC[C@H]6O)[nH]c4cc3F)cc2)cc1,"AGTR1 (Homo sapiens, UniProt P30556)","calcium signal, antagonist",,10 µM,,inhibition,32%
COc1ccccc1C(C[N+](=O)[O-])c1c(-c2ccccc2)[nH]c2ccccc12 (stereo not shown),"CNR1 (Homo sapiens, UniProt P21554, N393A)","G protein activation, agonist",,100%,,Emax,92.6 ± 4.06%
CN(C)[C@H]1C[C@@]23CC[C@@]4(O2)C(=CC[C@]2(C)[C@@H](c5ccc6ccncc6c5)CC[C@H]24)C=C3[C@@H](O)[C@@H]1O,"SLK (Homo sapiens, UniProt Q9H2G2)","ATP probe labelling, inhibitor, KiNativ profiling",,1 µM,,inhibition,1.5%
Cc1sc2c(c1C)C(c1ccc(Cl)cc1)=NC(CC(=O)OC(C)(C)C)c1nnc(C)n1-2 (stereo not shown),"CHRM2 (Homo sapiens, UniProt P08172)","ligand displacement, radioligand",,1 µM,,remaining binding,97.8%
CSc1cc(C)[nH]c(=O)c1CNC(=O)c1c(C)n([C@H](C)C2CCN(CC(F)(F)F)CC2)c2ccccc12,"EZH2 (Homo sapiens, UniProt Q15910)","binding, TR-FRET",,together with: H3K27me3 activating peptide,,residence time,3120 min
Cc1ccc2c(C(C[N+](=O)[O-])c3cccs3)c(-c3ccccc3)[nH]c2c1 (stereo not shown),"CNR1 (Homo sapiens, UniProt P21554, V249A)","Gαi1-γ2 dissociation, BRET",,,,Emax,86.8 ± 2.41%
CC(C)[C@H]1NC(=O)C[C@H]2/C=C/CCSSC[C@@H](NC1=O)C(=O)N[C@H](Cc1cccc3ccccc13)C(=O)NCC(=O)O2,"PDK4 (Homo sapiens, UniProt Q16654)","enzyme activity, inhibitor",,10 µM,,inhibition,1.6%
Nc1ccc(/C=C/C(=O)N2CCc3c(oc4c(-c5ccc(F)cc5)cc(-c5ccc(C(=O)N6CCC(F)(F)CC6)cn5)cc34)C2)cn1,"KIT (Homo sapiens, UniProt P10721, T670I/V559D)","binding, competition with immobilised ligand",,1 µM,,remaining binding,99%
CC(C)C[C@H](NC(=O)[C@H](CC(C)C)NC(=O)[C@H](CCCCN)NC(=O)[C@H](Cc1ccccc1)NC(=O)[C@@H](NC(=O)[C@H](CCCNC(=N)N)NC(=O)[C@@H](N)CCCCN)C(C)C)C(=O)N[C@@H](CCCCN)C(=O)N[C@@H](CCCNC(=N)N)C(=O)N[C@@H](Cc1ccc(O)cc1)C(=O)N[C@@H](Cc1c[nH]c2ccccc12)C(=O)N[C@@H](CCCNC(=N)N)C(=O)N[C@@H](CCC(N)=O)C(=O)N[C@@H](CC(C)C)C(=O)N[C@@H](CCCCN)C(=O)N[C@@H](CCCCN)C(=O)N1CCC[C@H]1C(=O)N[C@H](C(=O)N[C@@H](CCCNC(=N)N)C(=O)NCCOCCOCC(=O)O)C(C)C,Pseudomonas aeruginosa,gel retardation,genomic DNA,,,complete DNA binding concentration,≥ 16 µM

# Excerpt of the above:
SMILES,tested on,assay,test system,conditions,scale,quantity,value
CN(C)[C@H]1C[C@@]23CC[C@@]4(O2)C(=CC[C@]2(C)[C@@H](c5ccc6ccncc6c5)CC[C@H]24)C=C3[C@@H](O)[C@@H]1O,"SLK (Homo sapiens, UniProt Q9H2G2)","ATP probe labelling, inhibitor, KiNativ profiling",,1 µM,,inhibition,1.5%
